Published values collected from several papers.
Protocols differ between the studies behind these lines. Numbers after ± are the reported error.

| Structure (SMILES) | test | system | conditions | how to read | quantity | value |
| --- | --- | --- | --- | --- | --- | --- |
| C=CC(=O)Nc1cc(Nc2nccc(-c3cn(C4CC4)c4ccccc34)n2)c(OC)cc1N(C)CCNC | long-term storage stability | rat plasma | 40 ng/mL, 3 weeks, -80 °C | relative to: nominal concentration | relative error | 0% |
| CCCNC(=O)[C@H]1O[C@@H]1C(=O)N[C@H](C(=O)N1CCC[C@H]1C(=O)OCC1=C2C(C)=CC(C)=[N+]2[B-](F)(F)n2c(C)cc(C)c21)[C@@H](C)CC | DPBF degradation | isopropyl alcohol | irradiation above 500 nm | relative to: methylene blue | relative singlet oxygen generation | 31.3 ± 8.8% |
| Cc1cccc(-c2cccc(C)n2)n1.[Cl-].[Cl-].[Ru+2].c1ccc(-c2ccccn2)nc1.c1ccc(-c2ccccn2)nc1 | C18 HPLC retention time | water | 100 µM | relative to: standards of known log P | relative log P | 1.14 |
| CC1=CC(C)=[N+]2C1=C(CO)c1c(C)cc(C)n1[B-]2(C)C | DPBF degradation | isopropyl alcohol | irradiation above 500 nm | relative to: methylene blue | relative singlet oxygen generation | 202 ± 5% |
| [Cl-].[Cl-].[Ru+2].c1ccc2nc(-c3ccc4ccccc4n3)ccc2c1.c1cnc2c(c1)ccc1cccnc12.c1cnc2c(c1)ccc1cccnc12 | C18 HPLC retention time | water | 100 µM | relative to: standards of known log P | relative log P | 1.24 |
| C[C@@H](C(=O)O)c1ccc(-c2ccccc2)c(F)c1 | HPLC | solution | concentration not given, 10 h, room temperature | – | relative change of HPLC peak area | 0.37% |
| Cc1ccc2ccc3ccc(C)nc3c2n1.Cc1ccc2ccc3ccc(C)nc3c2n1.Clc1ccc(-c2cc(-c3ccccn3)nn2-c2ccccc2)cc1.[Cl-].[Cl-].[Ru+2] | C18 HPLC retention time | water | 100 µM | relative to: standards of known log P | relative log P | 1.61 |
| CCCNC(=O)[C@H]1O[C@@H]1C(=O)N[C@H](C(=O)N1CCC[C@H]1C(=O)OCC1=C2C(C)=CC(C)=[N+]2[B-](C)(C)n2c(C)cc(C)c21)[C@@H](C)CC | DPBF degradation | isopropyl alcohol | irradiation above 500 nm | relative to: methylene blue | relative singlet oxygen generation | 153 ± 35% |
| CCNCC#CCNc1ccnc2cc(Cl)ccc12 | item: compound as metabolite | human hepatocytes | 10 µM DAQ, 30 min | relative to: parent at time zero | relative UV abundance | 37.2% |

For quick reference, copied from above:
| Structure (SMILES) | test | system | conditions | how to read | quantity | value |
| --- | --- | --- | --- | --- | --- | --- |
| CCCNC(=O)[C@H]1O[C@@H]1C(=O)N[C@H](C(=O)N1CCC[C@H]1C(=O)OCC1=C2C(C)=CC(C)=[N+]2[B-](C)(C)n2c(C)cc(C)c21)[C@@H](C)CC | DPBF degradation | isopropyl alcohol | irradiation above 500 nm | relative to: methylene blue | relative singlet oxygen generation | 153 ± 35% |
